Results from different studies.
Every numbered part comes from another study and shows a few of its results, in no order. Substitutions count along the parent as printed.

Set 1
Target: Ras GTPase-activating protein-binding protein 1, RRM domain (G3BP1, Homo sapiens, UniProt Q13283)
UniProt Q13283, sequence (whole entry, looked up): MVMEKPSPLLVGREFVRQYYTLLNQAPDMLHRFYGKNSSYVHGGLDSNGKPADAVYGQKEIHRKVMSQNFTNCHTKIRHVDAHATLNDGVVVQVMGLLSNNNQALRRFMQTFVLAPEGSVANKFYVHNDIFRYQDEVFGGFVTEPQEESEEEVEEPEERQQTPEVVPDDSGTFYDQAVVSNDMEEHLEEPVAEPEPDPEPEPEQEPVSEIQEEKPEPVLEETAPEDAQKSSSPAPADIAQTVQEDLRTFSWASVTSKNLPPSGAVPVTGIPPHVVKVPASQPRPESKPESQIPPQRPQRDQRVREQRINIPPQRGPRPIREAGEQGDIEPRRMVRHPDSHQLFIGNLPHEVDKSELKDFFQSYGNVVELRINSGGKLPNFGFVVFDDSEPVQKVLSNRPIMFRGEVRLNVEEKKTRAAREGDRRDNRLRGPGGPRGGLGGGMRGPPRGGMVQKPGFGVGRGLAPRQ
Technique: RNA Bind-n-Seq
Form: RNA
Medium: in vitro
Tested at: 1 µM
Setting: whole 134-nt RNA, ends assumed
With: 150 mM KCl
Reference: input library
Direction: higher = stronger binding
Constant ends, left off below: GGGAGUUCUACAGUCCGACGAUC … UGGAAUUCUCGGGUGUCAAGG
Sequence | log2 enrichment
UCUCUCUCUUUCCCUCUAGGGUCACAUCUCCCAGGAAGAUCUCACUUCCCCACAGAAGCUCUUGGCCUGGCCUCCUGCAGUGCCACGCUC | 0.219
ACCAUGCAGGUGGAAAUCUUUGGGAAGUGGGGCAAGGGGGGGAUAGGGAGGGGGGUAACACUUUGGGAACAGGUGGUCCCAGGUCGUUUC | -0.295
GAAAUUUGGUUAUGUGGAUUUUGAAUCUGCUGAAGACCUGGAGAAAGCGUUGGAACUCACUGGUUUGAAAGUCUUUGGCAAUGAAAUUAA | -0.487
GUCCUGUGCUACACAUCGUAUGUACCGAAUCAAACCCCCCCAAACCCCCAAAUUUAAAAAAGUAUUAUGUUACGCCGUUCGGAUCUGCAC | -0.108
GUCCUGUGCUACACAUCGUAUGUACCGAAUCGGGGAAAAAGGGGAAAGGGGAAAGGGGAAAGUAUUAUGUUACGCCGUUCGGAUCUGCAC | 1.64
UGACUUUAGAGGAGGAUCUGAUGGAUAUGGCAGUGGACGUGGAUUUGGGGAUGGCUAUAAUGGGUAUGGAGGAGGACCUGGAGGUGGCAA | -0.799
AAAUAUCAGUGAUCAUCGCAAGGAAGGAGGCAGACAAGAGUAAGGCACACCUGACUCUUAGGACUAGCAGUCAGAACCAGGAGGAAAGGU | -0.173
AUUCUUCAUUGAGGGUGAGGAUCUCCCAAUGGGAGACUGCUCUGAAAAGAGCAUGUGCUUUUUGAAUUAGAUAACCUACUAUAAUCAUGG | -0.0679
GUCCUGUGCUACACAUCGUAUGUACCGAAUCGGUUUUUUUGGAAAAAGGAAAAAAAGGAAAGUAUUAUGUUACGCCGUUCGGAUCUGCAC | -0.15
CACAGACAACACGCACCCACACAUACACAGAGGGAAGGGGUUGGGAUGGGGACAGGGUGCACAGCAGGGCGGGGUAGGACCCCAGCCCCU | -0.0395
CACAGACAACACGCACCCACACAGAGACAGAGGGAAGGGGUUGGGAUGGGGACAGGGUGCACAGCAGGGCGGGGUAGGACCCCAGCCCCU | 0.0738
CAAGUCCUGUGCUACACAUCGUAUGUACCGAAUCGGAAAGGUUUGGAAAAAAAGGAAAGUAUUAUGUUACGCCGUUCGGAUCUGCACUUC | -0.169
UCAAGUCCUGUGCUACACAUCGUAUGUACCGAAUCGGUUUGGUUUGGUUUUUGGAAAGUAUUAUGUUACGCCGUUCGGAUCUGCACUUCC | -0.245
CACAGACAACACGCACCCACACAGACACAGAGGGAAGGGGUUGGGAUGGGGACAGGGUGCACAGCAGGGCGGGGUAGGACCAAAGCCCCU | -0.228

Set 2
Target: Interferon regulatory factor 7, full length, phosphomimetic (IRF7, Homo sapiens, UniProt Q92985, residues 1-503, S471D/S472D/S475D/S476D/S477D/S483D/S484D/S487D)
UniProt Q92985, sequence (whole entry, unmodified, looked up): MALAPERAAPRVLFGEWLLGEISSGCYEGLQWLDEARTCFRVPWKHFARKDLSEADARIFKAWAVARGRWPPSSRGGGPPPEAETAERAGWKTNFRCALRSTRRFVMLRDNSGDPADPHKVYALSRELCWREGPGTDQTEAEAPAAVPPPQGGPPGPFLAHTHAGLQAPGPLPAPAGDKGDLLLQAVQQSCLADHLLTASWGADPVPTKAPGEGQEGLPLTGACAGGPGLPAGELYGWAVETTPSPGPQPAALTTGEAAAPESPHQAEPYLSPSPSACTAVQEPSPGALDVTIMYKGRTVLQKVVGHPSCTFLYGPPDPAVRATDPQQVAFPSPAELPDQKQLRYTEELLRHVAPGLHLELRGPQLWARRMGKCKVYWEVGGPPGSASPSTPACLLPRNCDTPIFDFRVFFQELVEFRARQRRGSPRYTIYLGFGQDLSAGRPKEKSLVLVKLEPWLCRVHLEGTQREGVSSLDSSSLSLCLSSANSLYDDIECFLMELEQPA
Technique: protein-binding microarray
Form: double-stranded DNA, one strand shown
Medium: in vitro
Tested at: 2200 nM top
Setting: 60-bp whole probe
With: salmon DNA 0.4 mg/ml
Reference: random background probes
Direction: higher = stronger binding
Constant ends, left off below: GCCTAGCAC … GTCTTGATTCGCTTGACGCTGCTG
Sequence | fitted relative affinity
TGAACTTGGAATTTCCCTCTGTGCTAG | 0.44 z-score
GGCGGTATCGGACTGGGGACGTGCTAG | -1.17 z-score
ACAGCTCTGCGGTTCAGATAGTGCTAG | 0.183 z-score
TTAGGTATCGGATTGGGTTAGTGCTAG | 0.855 z-score
TTATGACTGGGGTATCGGTTAGTGCTA | 0.19 z-score
GGTCCTCTAGGAATGTAACTGTGCTAG | 0.0387 z-score
GACGGAATGGGTTTCGGGACGTGCTAG | 1.47 z-score
TCAATTTACATTTTAGTACTGTGCTAG | 1.65 z-score
GACGGTATCGTACTGGGGACGTGCTAG | -0.0422 z-score
GACGATCTCTGTATCGAGACGTGCTAG | 0.402 z-score
GCCGGTCTCGGTCTCGGGACGTGCTAG | 0.299 z-score
GACGGTCTCCTTTTCTTGACGTGCTAG | 1.34 z-score
GACGGTTTCCTTTTTCTGACGTGCTAG | 4.57 z-score
TTTGGACTGCTACTGCTTTAGTGCTAG | 0.262 z-score
GACGATATCAGTTTCGAGATGTGCTAG | 4.2 z-score

Set 3
Target: CCND2, cyclin fold, Cln2 fusion (human)
Technique: yeast growth competition, sequencing
Medium: yeast
Setting: strong parent motif
Reference: not given
Direction: higher = stronger binding
Starting sequence: E2F1 docking peptide (human); PPVKRRLDFETDH; partner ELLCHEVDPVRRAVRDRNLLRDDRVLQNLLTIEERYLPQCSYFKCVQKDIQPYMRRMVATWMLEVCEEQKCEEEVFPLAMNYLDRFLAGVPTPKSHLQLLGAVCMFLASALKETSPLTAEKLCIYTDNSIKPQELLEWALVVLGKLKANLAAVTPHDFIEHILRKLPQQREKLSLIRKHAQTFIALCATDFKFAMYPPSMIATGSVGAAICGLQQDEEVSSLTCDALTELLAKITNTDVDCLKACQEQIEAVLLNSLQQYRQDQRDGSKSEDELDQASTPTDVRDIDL
Variant | normalised enrichment score
D8Q | 1.21
K4Q | 1.85
T11P | 1.31
V3W | 0.391
T11S | 2.29
K4R | 2.58
F9D | -0.0679
V3L | 0.507
D12N | 1.97
V3T | 1.9
L7F | 0.237
D12M | 1.86
L7Q | 0.103
R6G | 0.18
L7A | 0.549
D12R | 1.56
D12H | 1.92
E10A | 1.57
V3Q | 0.367
R5V | 0.739
D8N | 1.95
D12P | 2.26
V3M | 0.674
L7P | 0.209
E10P | 0.727

Set 4
Target: DDIT3, bZIP domain (human)
Technique: DHFR protein complementation
Medium: yeast
Setting: single substitutions, most at no-binding floor
Reference: wild-type JUN-FOS pair
Direction: higher = stronger binding
Starting sequence: JUN, bZIP domain (human); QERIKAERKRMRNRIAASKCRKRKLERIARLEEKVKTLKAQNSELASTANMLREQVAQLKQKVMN; partner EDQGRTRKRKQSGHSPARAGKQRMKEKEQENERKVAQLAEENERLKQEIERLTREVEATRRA
Variant | binding fitness
T37Y | 0.135 natural log
A49C | -0.0744 natural log
N42F | -0.941 natural log
A40V | -0.0261 natural log
L31I | -0.254 natural log
K34I | -0.0303 natural log
A40E | 0.0788 natural log
T48Q | 0.109 natural log
A46R | 0.116 natural log
A46E | 0.0645 natural log
K36I | -0.0666 natural log
A49H | -0.597 natural log
N42H | -0.168 natural log
S43M | 0.0603 natural log
L52H | -1.1 natural log

Some of these lines once more (set 3):
Variant | normalised enrichment score
T11S | 2.29
K4R | 2.58
F9D | -0.0679
V3L | 0.507
D12N | 1.97
V3T | 1.9
L7F | 0.237
